{"data": "Measured values from different studies", "note": "Each numbered part is a random draw from the data of one study; scales do not carry over between parts."}
{"data": "Series 1", "target": "Sox-I, HMG box (Salpingoeca helianthica)", "technique": "Spec-seq", "form": "double-stranded DNA, one strand shown", "sample": "in vitro", "concentration": "not given", "setting": "whole probe, mean of replicates", "relative to": "not given", "reading": "lower = stronger binding", "Construct (chain)": "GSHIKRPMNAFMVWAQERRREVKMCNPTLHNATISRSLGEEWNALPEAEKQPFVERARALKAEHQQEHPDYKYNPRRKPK"}
{"Oligonucleotide": "GAGTCGTCTCGTCAGCACCATATTACCGTAGAGCACTCAGGTC", "relative binding energy [ln ratio]": 0.246}
{"Oligonucleotide": "GAGTCGTCTCGTCAGCACCATTGCACCGTAGAGCACTCAGGTC", "relative binding energy [ln ratio]": 0.84}
{"Oligonucleotide": "GAGTCGTCTCGTCAGCACTTTCGTTCCGTAGAGCACTCAGGTC", "relative binding energy [ln ratio]": 0.662}
{"data": "Series 2", "target": "Prothrombin, mature alpha-thrombin (F2, Homo sapiens, UniProt P00734)", "technique": "aptamer microarray, sandwich", "form": "DNA with 2'F-ANA", "sample": "in vitro", "concentration": "200 nM", "setting": "whole 15-mer aptamer, many near background", "together with": "Cy3 exosite-II aptamer, 400 nM", "reading": "higher = stronger binding"}
{"Oligonucleotide": "GGTTGGTGTGGTTGG (2'F-ANA at 3 12 13 14)", "mean fluorescence intensity": "602 a.u."}
{"Oligonucleotide": "GGTTGGTGTGGTTGG (2'F-ANA at 1 2 3 4 5 7 8 14 15)", "mean fluorescence intensity": "48.4 a.u."}
{"Oligonucleotide": "GGTTGGTGTGGTTGG (2'F-ANA at 3 6 9 14)", "mean fluorescence intensity": "549 a.u."}
{"data": "Mixed results", "IRF3 S386D/S396D/S398D/S402D/T404D/S405D full length, phosphomimetic": "Interferon regulatory factor 3, full length, phosphomimetic (IRF3, Homo sapiens, UniProt Q14653, residues 1-427, S386D/S396D/S398D/S402D/T404D/S405D)", "chain of UniProt Q14653 (whole entry, unmodified, looked up)": "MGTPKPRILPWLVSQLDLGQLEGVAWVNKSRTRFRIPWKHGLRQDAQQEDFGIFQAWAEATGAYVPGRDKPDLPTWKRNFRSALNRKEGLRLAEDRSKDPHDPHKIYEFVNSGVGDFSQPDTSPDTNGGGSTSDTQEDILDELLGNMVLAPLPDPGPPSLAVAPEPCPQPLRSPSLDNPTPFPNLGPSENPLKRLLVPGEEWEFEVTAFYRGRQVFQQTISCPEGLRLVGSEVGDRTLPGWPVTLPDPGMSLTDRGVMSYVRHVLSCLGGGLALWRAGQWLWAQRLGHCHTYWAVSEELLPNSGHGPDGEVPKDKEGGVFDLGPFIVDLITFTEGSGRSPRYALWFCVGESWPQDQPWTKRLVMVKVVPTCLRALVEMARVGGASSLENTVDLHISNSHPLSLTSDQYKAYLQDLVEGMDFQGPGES"}
{"Substance": "GCCTAGCACTTAGGAGTGCTACTGCTTTAGTGCTAGGTCTTGATTCGCTTGACGCTGCTG", "target": "IRF3 S386D/S396D/S398D/S402D/T404D/S405D full length, phosphomimetic", "assay": "protein-binding microarray", "system": "double-stranded DNA, one strand shown, in vitro", "conditions": "2540 nM top, 60-bp whole probe, together with: salmon DNA 0.4 mg/ml", "how to read": "relative to: random background probes, higher = stronger binding", "measurement": "fitted relative affinity", "result": "-0.92 z-score"}
{"Substance": "PhoQ, residues 284 288 289 292 302 303 SNSSNI", "target": "PhoP, residues 12 14 15 18 19 LQHIR (Escherichia coli, UniProt P23836)", "assay": "Sort-seq, measured: YFP reporter", "system": "E. coli", "conditions": "PhoQ-PhoP variant library, together with: 10 µM Mg2+", "how to read": "relative to: high Mg2+ state, higher = stronger signaling", "measurement": "fold induction", "result": 2.95}
{"Substance": "GCCTAGCACGACGATATCAGCCTCGAGACGTGCTAGGTCTTGATTCGCTTGACGCTGCTG", "target": "IRF3 S386D/S396D/S398D/S402D/T404D/S405D full length, phosphomimetic", "assay": "protein-binding microarray", "system": "double-stranded DNA, one strand shown, in vitro", "conditions": "2540 nM top, 60-bp whole probe, together with: salmon DNA 0.4 mg/ml", "how to read": "relative to: random background probes, higher = stronger binding", "measurement": "fitted relative affinity", "result": "-0.105 z-score"}
